# Assay results of several laboratories.
# Protocols differ between the studies behind these lines. Values joined by “and” are separate records of one study, mostly repeats; a detail may differ. Numbers after ± are the reported error.
# Chain of UniProt Q9NYL2 (whole entry, looked up): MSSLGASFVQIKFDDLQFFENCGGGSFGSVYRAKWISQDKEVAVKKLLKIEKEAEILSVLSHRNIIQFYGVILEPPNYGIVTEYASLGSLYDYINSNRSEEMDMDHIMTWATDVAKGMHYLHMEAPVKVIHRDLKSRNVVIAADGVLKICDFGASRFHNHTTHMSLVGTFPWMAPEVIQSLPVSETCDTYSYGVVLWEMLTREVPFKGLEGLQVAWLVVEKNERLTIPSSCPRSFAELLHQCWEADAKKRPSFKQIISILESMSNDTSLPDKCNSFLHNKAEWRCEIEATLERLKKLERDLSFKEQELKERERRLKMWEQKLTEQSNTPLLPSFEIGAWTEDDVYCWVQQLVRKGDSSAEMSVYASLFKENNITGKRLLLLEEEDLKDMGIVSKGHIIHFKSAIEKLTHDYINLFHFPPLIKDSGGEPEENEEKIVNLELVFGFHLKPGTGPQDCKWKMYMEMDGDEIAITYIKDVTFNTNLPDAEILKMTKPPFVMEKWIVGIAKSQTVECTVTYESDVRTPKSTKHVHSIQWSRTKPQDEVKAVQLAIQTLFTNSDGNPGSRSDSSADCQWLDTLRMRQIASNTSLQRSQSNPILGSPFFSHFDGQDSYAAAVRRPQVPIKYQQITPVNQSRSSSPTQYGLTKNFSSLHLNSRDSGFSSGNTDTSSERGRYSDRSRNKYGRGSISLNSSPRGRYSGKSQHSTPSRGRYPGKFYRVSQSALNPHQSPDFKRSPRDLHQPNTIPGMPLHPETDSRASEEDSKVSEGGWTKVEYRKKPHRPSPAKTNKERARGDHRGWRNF
SMILES,tested on,test,system,setting,scale,quantity,result
CC(C)(C)C(=O)OCOP(=O)(OCOC(=O)C(C)(C)C)C1CCCN(O)C1=O (stereo not drawn),CAKI-1,,,,,GI50,0.324 µM
Cc1cc(Oc2nc(N3CC[C@@H](c4ccncc4)C3)ncc2F)[nH]n1,colon cancer cell lines,cell proliferation,,average over lines,,IC50,44.7 µM
O=C(C[Se]C(=O)c1ccccc1Nc1ccccc1)Nc1cccc(C(F)(F)F)c1,NCI60 melanoma subpanel,"cytotoxicity, inhibitor",,five-dose,,CC50,6.35 µM
O=C1NC2(CC2)COc2ncc(F)cc2[C@H]2COCCN2c2ccn3ncc1c3n2,,,"Sprague-Dawley rat, female, serum","oral, 10 mg/kg/day, end of treatment, 4-week subacute toxicity",,serum urea,5.66 ± 1.08 mmol/L
COc1ccccc1-c1ccncc1C(=O)Nc1nnc(OCc2ccc(Cl)cc2)s1,RPE-1 BRCA1 WT parental,,,"2 µM, run 2",relative to: untreated,colony survival,86.8%
CC1CCC2C(C)C(OC(=O)CCC(=O)N3CCC(Nc4ccc(S(=O)(=O)NC(=O)c5ccc(N6CCN(CC7=C(c8ccc(Cl)cc8)CC(C)(C)CC7)CC6)cc5Oc5cnc6[nH]ccc6c5)cc4[N+](=O)[O-])CC3)OC3OC4(C)CCC1C32OO4 (stereo not drawn),THP-1,"annexin V/PI flow cytometry, item: annexin V+/PI-",,"0.2 µM, 24 h",,early apoptotic cells,13.4%
CC(C)C[C@H](NC(=O)[C@H](CC(=O)O)NC(=O)CNC(=O)[C@@H](N)CCCNC(=N)N)C(=O)N[C@@H](C)C(=O)N[C@H](C(=O)N[C@@H](CC(C)C)C(=O)N[C@@H](CCCNC(=N)N)C(=O)N[C@@H](CCC(N)=O)C(=O)N[C@@H](CC(C)C)C(=O)N[C@@H](C)C(=O)N[C@@H](CCC(N)=O)C(=O)N[C@@H](CCC(=O)O)C(=O)N[C@@H](CC(=O)O)C(=O)NCC(=O)N[C@H](C(=O)N[C@H](C(=O)NCC(=O)N[C@H](C(=O)N[C@@H](CCCNC(=N)N)C(=O)NCCOCCOCCOCCOCCOCCOCCOCCOCCOCCOCCOCCOCCC(=O)N[C@@H](CS)C(N)=O)C(C)C)C(C)C)C(C)C)[C@@H](C)O,H2122 lung adenocarcinoma,"cell binding, phage binding, item: output/input phage",,"10 min, 37 °C",relative to: control phage,selectivity ratio,48 ± 6
N[C@H](C(=O)N1CCCC1)C1CCN(c2nccc3c(-c4ncc(Cl)cc4Cl)cccc23)CC1,human neutrophils,"protein citrullination, inhibitor, flow cytometry, item: citrullinated proteins",,"316 nM, together with: ionomycin",,inhibition,20.1% and 31% and 20.2% and 34.3%
Cc1cc(C(=O)Nc2nc3cccc(C)c3n2[C@H]2CCCCN(C(=O)/C=C/CN(C)C)C2)ccn1,Trypanosoma brucei brucei,,2T1 CLK1 overexpressing,"0.0195 µM, compound pretreated",relative to: maximum,survival,157% and 167% and 153% and 136%
COc1ccccc1-c1n[nH]c2nc(N[C@H]3CC[C@H](NS(=O)(=O)CC(C)C)CC3)ncc12,CYCA LINJ.25.1530,bead competition pull-down,Leishmania extract,10 µM,relative to: vehicle,relative captured amount,0.47
CSCC[C@H](NC(=O)[C@H](CCC(=O)O)NC(=O)[C@H](CS)NC(=O)[C@H](Cc1ccccc1)NC(=O)[C@H](CC(N)=O)NC(=O)[C@@H]1CCCN1C(=O)[C@@H]1CCCN1C(=O)[C@H](CC(N)=O)NC(=O)[C@H](CC(C)C)NC(=O)[C@H](CCSC)NC(=O)[C@H](CC(C)C)NC(=O)[C@H](CS)NC(=O)[C@H](CCC(N)=O)NC(=O)CNC(=O)[C@H](Cc1ccc(O)cc1)NC(=O)[C@@H](NC(=O)[C@@H](NC(=O)[C@@H]1CCCN1C(=O)[C@@H](N)CS)C(C)C)[C@@H](C)O)C(=O)N[C@@H](CC(=O)O)C(=O)NCC(=O)N[C@@H](CCC(N)=O)C(=O)N[C@@H](CS)C(=O)N[C@@H](CCCCN)C(=O)O,RAW264.7,Western blot,,"concentration not given, 6 h pretreatment, together with: LPS 30 min",,p-NF-κB/NF-κB ratio,0.25 ± 0.02
O=C(C[Se]C(=O)c1cccs1)Nc1cccc(C(F)(F)F)c1,NCI60 leukaemia subpanel,NCI60 five-dose screen,,,,mean TGI,4.49 µM
COc1ccccc1-c1n[nH]c2nc(NC3CCN(C(=O)Cc4ccc(F)cc4F)CC3)ncc12,,"bead binding, competition bead pull-down, item: LINJ.23.0220",Leishmania donovani extract,10 µM,relative to: vehicle,relative abundance,1.07
CC[C@H](C)[C@H](NC(=O)[C@H](C)NC(=O)CNC(=O)[C@H](Cc1ccccc1)NC(=O)[C@H](CC(N)=O)NC(=O)[C@H](CC(N)=O)NC(=O)[C@H](CO)NC(=O)[C@H](CO)NC(=O)[C@H](Cc1c[nH]cn1)NC(=O)[C@@H](NC(=O)[C@H](CC(C)C)NC(=O)[C@H](Cc1ccccc1)NC(=O)[C@H](CC(N)=O)NC(=O)[C@H](C)NC(=O)[C@H](CC(C)C)NC(=O)[C@H](CCCNC(=N)N)NC(=O)[C@H](CCC(N)=O)NC(=O)[C@@H](NC(=O)[C@H](C)NC(=O)[C@@H]1CSSC[C@H](NC(=O)[C@@H](N)CCCCN)C(=O)N[C@@H](CC(N)=O)C(=O)N[C@@H]([C@@H](C)O)C(=O)N[C@@H](C)C(=O)N[C@@H]([C@@H](C)O)C(=O)N1)[C@@H](C)O)C(C)C)C(=O)N[C@@H](CC(C)C)C(=O)N[C@@H](CO)C(=O)N[C@@H](CO)C(=O)N[C@H](C(=O)N[C@@H](CC(N)=O)C(=O)N[C@H](C(=O)NCC(=O)N[C@@H](CO)C(=O)N[C@@H](CC(N)=O)C(=O)N[C@H](C(=O)N[C@@H](Cc1ccc(O)cc1)C(N)=O)[C@@H](C)O)C(C)C)[C@@H](C)O,RIN-m5F,ELISA,,"24 h, pre-aggregated",relative to: fresh amylin,nuclear content increase,5 fold
CN(C)[C@H]1C[C@@]23CC[C@@]4(O2)C(=CC[C@]2(C)[C@@H](c5ccc6ccncc6c5)CC[C@H]24)C=C3[C@@H](O)[C@@H]1O,"Mitogen-activated protein kinase kinase kinase 20 (MAP3K20, Homo sapiens, UniProt Q9NYL2)","ATP probe labelling, inhibitor, KiNativ profiling",,0.1 µM,,inhibition,-4.6%

# Excerpt of the above:
SMILES,tested on,test,system,setting,scale,quantity,result
O=C(C[Se]C(=O)c1cccs1)Nc1cccc(C(F)(F)F)c1,NCI60 leukaemia subpanel,NCI60 five-dose screen,,,,mean TGI,4.49 µM
COc1ccccc1-c1n[nH]c2nc(NC3CCN(C(=O)Cc4ccc(F)cc4F)CC3)ncc12,,"bead binding, competition bead pull-down, item: LINJ.23.0220",Leishmania donovani extract,10 µM,relative to: vehicle,relative abundance,1.07
